Measurements collected from several papers.
A part holds a random share of what one study measured. Changes are numbered by the printed parent chain.

Series 1
Target: CCNA2, cyclin fold, Cln2 fusion (human)
Method: yeast growth competition, sequencing
Matrix: yeast
Setting: weak parent motif
Relative to: not given
Reading: higher = stronger binding
Starting sequence: MASTL docking peptide (human); PMIAKNLMCELDE
Under “normalised enrichment score”, `D12R` is recorded as 0.0883.
For `N6P`, “normalised enrichment score” read -0.477.
Under “normalised enrichment score”, `E10W` is recorded as 0.6.
For `C9A`, “normalised enrichment score” read 0.0307.
Under “normalised enrichment score”, `M8T` is recorded as -0.37.
`I3E`: “normalised enrichment score” -0.385.
`I3P`: “normalised enrichment score” -0.277.
`I3N`: “normalised enrichment score” 0.0415.
`I3C`: “normalised enrichment score” 1.33.

Series 2
Target: Histone acetyltransferase KAT6A, winged helix 1, GST fusion (KAT6A, Homo sapiens, UniProt Q92794, residues 1-85)
Method: protein binding microarray
Molecule type: double-stranded DNA, one strand shown
Matrix: in vitro
Concentration: not given
Setting: 8-mer, flanks averaged, mean of 2 arrays, mostly near background
Relative to: not given
Reading: higher = stronger binding
Construct (chain): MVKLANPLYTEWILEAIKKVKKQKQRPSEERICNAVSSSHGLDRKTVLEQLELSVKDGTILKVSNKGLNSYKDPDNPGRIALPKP
`CTTCCAGC` has an E-score of 0.0268.
For `TTAGATAA`, the E-score was -0.204.
`ATCTAGAG` gave an E-score of -0.156.
`CAGGGACA` gave an E-score of -0.221.
With `GGAGTGAA` the E-score was -0.0988.
For `ACGCTATA`, the E-score was 0.188.
For `AGGATTTG`, the E-score was -0.239.
With `AAACGATA` the E-score was -0.178.
With `GACCGGTA` the E-score was 0.194.

Series 3
Target: ABI1, truncated, D143A, DHFR fusion (Arabidopsis thaliana)
Method: DHFR PCA, deep sequencing
Matrix: yeast
Setting: methotrexate growth selection, single substitutions
With: (+)-ABA 2500 µM
Relative to: wild-type fitted maximum
Reading: higher = stronger binding
Starting sequence: PYL1, truncated, DHFR fusion (Arabidopsis thaliana); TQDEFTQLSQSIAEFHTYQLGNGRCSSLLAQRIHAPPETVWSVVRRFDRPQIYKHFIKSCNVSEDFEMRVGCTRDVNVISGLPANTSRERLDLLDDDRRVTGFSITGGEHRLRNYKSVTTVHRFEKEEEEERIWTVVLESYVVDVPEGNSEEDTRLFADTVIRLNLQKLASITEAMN
For `Q2I`, “relative binding score” read 106%.
For `R123Q`, “relative binding score” read 98.5%.
For `F157T`, “relative binding score” read 56%.
Under “relative binding score”, `N177C` is recorded as 98.9%.
For `Y115W`, “relative binding score” read 88.2%.
`E38F`: “relative binding score” 80.6%.
Under “relative binding score”, `D144F` is recorded as 74.2%.
Under “relative binding score”, `G107R` is recorded as 92.9%.
`M68R` — result for “relative binding score”: 90%.

Further values, each from its own experiment
For `PhoQ, residues 284 288 289 292 302 303 SACGEM`, the fold induction was 8.47 (PhoP, residues 12 14 15 18 19 NQGLL (Escherichia coli, UniProt P23836); Sort-seq, measured: YFP reporter; E. coli; PhoQ-PhoP variant library, with: 10 µM Mg2+; relative to: high Mg2+ state, higher = stronger signaling).
